{"data": "Assay results collected from several papers", "note": "Every numbered part comes from another study and shows a few of its results, in no order."}
{"data": "Study 1", "target": "Prothrombin, mature alpha-thrombin (F2, Homo sapiens, UniProt P00734)", "method": "aptamer microarray, sandwich", "form": "DNA with 2'F-ANA", "sample": "in vitro", "concentration": "200 nM", "notes": "whole 15-mer aptamer, many near background", "together with": "Cy3 exosite-II aptamer, 400 nM", "direction": "higher = stronger binding", "oligonucleotide": "GGTTGGTGTGGTTGG"}
{"Modification": "2'F-ANA at 3 5 6 7 8 9 12 15", "mean fluorescence intensity": "232 a.u."}
{"Modification": "2'F-ANA at 1 2 3 12 13 14", "mean fluorescence intensity": "89.7 a.u."}
{"Modification": "2'F-ANA at 4 8 15", "mean fluorescence intensity": "402 a.u."}
{"Modification": "2'F-ANA at 1 2 3 5 6 8 9 11 13 14", "mean fluorescence intensity": "45.5 a.u."}
{"Modification": "2'F-ANA at 1 7 10 13 14", "mean fluorescence intensity": "53.9 a.u."}
{"Modification": "2'F-ANA at 1 2 7 8 10 12 13 15", "mean fluorescence intensity": "67.3 a.u."}
{"Modification": "2'F-ANA at 1 2 3 4 5 6 7 10 12 14 15", "mean fluorescence intensity": "51.8 a.u."}
{"Modification": "2'F-ANA at 1 2 6 8 9 10 11 12 14 15", "mean fluorescence intensity": "68.7 a.u."}
{"data": "Study 2", "target": "Sal-like protein 4, full length isoform A (SALL4, Homo sapiens, UniProt Q9UJQ4, residues 1-1053)", "method": "universal PBM", "form": "double-stranded DNA, one strand shown", "sample": "in vitro", "concentration": "600 nM", "notes": "8-mer, flanks averaged, mean of replicates", "direction": "higher = stronger binding", "chain of UniProt Q9UJQ4 (whole entry, looked up)": "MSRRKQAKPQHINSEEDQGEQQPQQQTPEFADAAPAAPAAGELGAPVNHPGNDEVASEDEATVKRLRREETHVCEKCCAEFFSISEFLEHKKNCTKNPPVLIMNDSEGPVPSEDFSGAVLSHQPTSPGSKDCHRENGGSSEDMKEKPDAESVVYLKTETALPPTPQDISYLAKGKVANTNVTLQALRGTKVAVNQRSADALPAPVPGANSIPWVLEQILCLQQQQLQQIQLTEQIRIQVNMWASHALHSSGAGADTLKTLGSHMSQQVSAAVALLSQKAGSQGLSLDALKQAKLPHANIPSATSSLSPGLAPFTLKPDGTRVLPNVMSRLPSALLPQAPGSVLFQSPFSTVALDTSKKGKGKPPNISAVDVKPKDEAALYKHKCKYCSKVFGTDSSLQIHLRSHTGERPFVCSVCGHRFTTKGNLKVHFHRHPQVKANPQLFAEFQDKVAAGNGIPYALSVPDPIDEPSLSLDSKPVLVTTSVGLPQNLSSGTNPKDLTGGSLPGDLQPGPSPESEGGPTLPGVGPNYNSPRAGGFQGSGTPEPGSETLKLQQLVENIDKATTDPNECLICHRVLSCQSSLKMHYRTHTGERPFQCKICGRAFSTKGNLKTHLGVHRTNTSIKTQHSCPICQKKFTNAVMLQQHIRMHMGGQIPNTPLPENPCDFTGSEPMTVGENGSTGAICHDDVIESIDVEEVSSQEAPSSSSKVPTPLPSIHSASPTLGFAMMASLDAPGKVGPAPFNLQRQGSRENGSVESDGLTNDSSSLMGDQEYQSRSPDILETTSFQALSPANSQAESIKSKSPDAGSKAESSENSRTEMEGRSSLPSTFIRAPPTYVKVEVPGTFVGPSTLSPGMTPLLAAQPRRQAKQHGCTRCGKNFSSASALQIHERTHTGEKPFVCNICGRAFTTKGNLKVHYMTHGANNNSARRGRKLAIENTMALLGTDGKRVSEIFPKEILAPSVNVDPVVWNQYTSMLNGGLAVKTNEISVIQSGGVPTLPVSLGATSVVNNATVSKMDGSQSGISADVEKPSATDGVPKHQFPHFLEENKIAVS"}
{"Oligonucleotide": "AGTCATGC", "E-score": -0.128}
{"Oligonucleotide": "ATCCGATC", "E-score": 0.0262}
{"Oligonucleotide": "ACTCAGGC", "E-score": -0.0639}
{"Oligonucleotide": "GTTACTCA", "E-score": 0.155}
{"Oligonucleotide": "GCGATTAA", "E-score": 0.175}
{"Oligonucleotide": "CTGAGCCC", "E-score": -0.236}
{"Oligonucleotide": "CTTTAGTA", "E-score": 0.0218}
{"Oligonucleotide": "CGAAGGAG", "E-score": -0.213}
{"data": "Study 3", "target": "UBE2E3 UBC core domain (UniProt Q969T4)", "method": "yeast two-hybrid", "sample": "yeast", "notes": "mostly zero background", "baseline": "not given", "direction": "higher = stronger interaction", "B1": "RBCK1 RING domain (UniProt Q9BYM8); chain SLVLNTEPAECPVCYSVLAPGEAVVLRECLHTFCRECLQGTIRNSQEAEVSCPFIDNTYSCSGKLLEREIK", "B2": "UBOX5 RING domain (UniProt O94941); chain EQPGSILGPECASCKRVFSPYFKKEPVYQLPCGHLLCRPCLGEKQRSLPMTCTACQRPVASQDVLR", "B3": "RFWD3 RING domain (UniProt Q6PCD5); chain ASMDEEEGDTCTICLEQWTNAGDHRLSALRCGHLFGYRCISTWLKGQVRKCPQCNKKARHSDIVV", "B4": "SH3RF1 RING domain (UniProt Q7Z6J0); chain DESALLDLLECPVCLERLDASAKVLPCQHTFCKRCLLGIVGSRNELRCPECRTLVGSGVEEL", "chain of UniProt Q969T4 (whole entry, looked up)": "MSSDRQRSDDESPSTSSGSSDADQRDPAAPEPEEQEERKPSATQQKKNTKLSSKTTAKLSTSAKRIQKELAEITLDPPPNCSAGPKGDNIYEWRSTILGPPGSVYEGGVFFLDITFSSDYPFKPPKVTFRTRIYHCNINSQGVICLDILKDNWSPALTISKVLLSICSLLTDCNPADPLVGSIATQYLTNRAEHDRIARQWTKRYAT"}
{"Molecule": "PEDRESLKSACVVCLSSFKSCVFLECGHVCSCTECYRALPEPKKCPICRQAITRVIPLY (MUL1 RING domain (UniProt Q969V5))", "lacZ reporter activity": 9860}
{"Molecule": "AVPSGLEENLCKICMDSPIDCVLLECGHMVTCTKCGKRMNECPICRQYVIRAVHVF (RFFL RING domain (UniProt Q8WZ73))", "lacZ reporter activity": 0}
{"Molecule": "AMYLQENGIDCPKCKFSYALARGGCMHFHCTQCRHQFCSGCYNAFYAKNKC (RNF31 RING domain (UniProt Q96EP0))", "lacZ reporter activity": 0}
{"Molecule": "GSRLQEINDVCAICYHEFTTSARITPCNHYFHALCLRKWLYIQDTCPMCHQKVYIEDDIK (RNF139 RING domain (UniProt Q8WU17))", "lacZ reporter activity": 0}
{"Molecule": "B1 (RBCK1 RING domain)", "lacZ reporter activity": 0}
{"Molecule": "B2 (UBOX5 RING domain)", "lacZ reporter activity": 0}
{"Molecule": "B3 (RFWD3 RING domain)", "lacZ reporter activity": 0}
{"Molecule": "B4 (SH3RF1 RING domain)", "lacZ reporter activity": 0}
{"data": "Further values, each from its own experiment"}
{"SMILES": "CC(C)n1cnc(-c2ccc(F)cc2)c1-c1ncc(C(=O)Nc2ccc(N3CCN(C)CC3)cc2)[nH]1", "assay": "Phase 2a trial, measured: gamma-glutamyltransferase increased", "test system": "idiopathic pulmonary fibrosis patients", "setting": "30 mg once daily, grade 3 maximum intensity", "measurement": "patients with adverse events", "value": "0%"}
{"note": "Repeated from above (study 3):"}
{"Molecule": "AVPSGLEENLCKICMDSPIDCVLLECGHMVTCTKCGKRMNECPICRQYVIRAVHVF (RFFL RING domain (UniProt Q8WZ73))", "lacZ reporter activity": 0}
{"Molecule": "AMYLQENGIDCPKCKFSYALARGGCMHFHCTQCRHQFCSGCYNAFYAKNKC (RNF31 RING domain (UniProt Q96EP0))", "lacZ reporter activity": 0}
{"Molecule": "GSRLQEINDVCAICYHEFTTSARITPCNHYFHALCLRKWLYIQDTCPMCHQKVYIEDDIK (RNF139 RING domain (UniProt Q8WU17))", "lacZ reporter activity": 0}
